Measurements pooled from the literature.
Parts stem from different laboratories: compare values within a part only. Several values in a cell are separate wells, animals, samples, runs or records.
Chain of UniProt P21802 (whole entry, looked up): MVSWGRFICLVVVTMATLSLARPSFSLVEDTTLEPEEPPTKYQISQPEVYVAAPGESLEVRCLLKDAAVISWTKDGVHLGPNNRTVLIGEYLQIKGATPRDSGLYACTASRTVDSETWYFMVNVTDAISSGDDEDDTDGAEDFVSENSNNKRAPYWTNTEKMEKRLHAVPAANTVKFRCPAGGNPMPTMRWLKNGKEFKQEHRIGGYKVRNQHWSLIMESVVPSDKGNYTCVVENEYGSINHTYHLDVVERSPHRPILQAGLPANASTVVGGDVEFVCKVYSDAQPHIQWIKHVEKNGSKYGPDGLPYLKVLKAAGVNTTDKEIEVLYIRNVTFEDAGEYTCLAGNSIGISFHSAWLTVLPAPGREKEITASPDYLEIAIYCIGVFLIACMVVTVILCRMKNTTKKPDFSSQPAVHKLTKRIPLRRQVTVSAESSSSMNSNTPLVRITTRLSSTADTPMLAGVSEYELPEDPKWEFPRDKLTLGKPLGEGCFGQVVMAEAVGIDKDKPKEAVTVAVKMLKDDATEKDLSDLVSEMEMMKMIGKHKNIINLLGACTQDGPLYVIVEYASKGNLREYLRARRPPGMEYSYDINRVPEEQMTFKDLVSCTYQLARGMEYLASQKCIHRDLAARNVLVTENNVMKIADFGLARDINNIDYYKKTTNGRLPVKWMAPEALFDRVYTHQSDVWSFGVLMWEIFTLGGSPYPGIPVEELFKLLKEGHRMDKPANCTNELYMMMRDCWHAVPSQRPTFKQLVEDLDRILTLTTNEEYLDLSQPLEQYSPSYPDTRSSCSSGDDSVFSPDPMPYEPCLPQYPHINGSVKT
Chain of UniProt P51812 (whole entry, looked up): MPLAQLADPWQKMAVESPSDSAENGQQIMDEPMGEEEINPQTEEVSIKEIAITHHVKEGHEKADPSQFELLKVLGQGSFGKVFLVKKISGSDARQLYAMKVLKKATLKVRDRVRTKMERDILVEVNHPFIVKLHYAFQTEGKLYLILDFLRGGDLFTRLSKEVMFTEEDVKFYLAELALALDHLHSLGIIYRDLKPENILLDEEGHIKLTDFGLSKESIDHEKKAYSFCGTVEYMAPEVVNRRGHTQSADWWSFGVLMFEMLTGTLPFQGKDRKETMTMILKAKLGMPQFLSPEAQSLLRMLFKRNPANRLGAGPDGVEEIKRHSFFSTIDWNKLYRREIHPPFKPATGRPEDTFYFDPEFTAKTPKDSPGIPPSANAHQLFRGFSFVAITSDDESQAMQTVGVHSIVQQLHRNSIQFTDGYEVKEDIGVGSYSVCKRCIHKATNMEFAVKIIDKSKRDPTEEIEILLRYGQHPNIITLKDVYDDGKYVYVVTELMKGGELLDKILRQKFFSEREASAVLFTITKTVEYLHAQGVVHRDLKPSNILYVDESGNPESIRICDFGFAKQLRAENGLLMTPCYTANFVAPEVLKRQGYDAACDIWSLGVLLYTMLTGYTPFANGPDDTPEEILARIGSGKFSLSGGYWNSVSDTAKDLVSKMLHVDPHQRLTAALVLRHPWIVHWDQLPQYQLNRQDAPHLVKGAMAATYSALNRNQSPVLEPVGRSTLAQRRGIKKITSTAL
Chain of UniProt Q15349 (whole entry, looked up): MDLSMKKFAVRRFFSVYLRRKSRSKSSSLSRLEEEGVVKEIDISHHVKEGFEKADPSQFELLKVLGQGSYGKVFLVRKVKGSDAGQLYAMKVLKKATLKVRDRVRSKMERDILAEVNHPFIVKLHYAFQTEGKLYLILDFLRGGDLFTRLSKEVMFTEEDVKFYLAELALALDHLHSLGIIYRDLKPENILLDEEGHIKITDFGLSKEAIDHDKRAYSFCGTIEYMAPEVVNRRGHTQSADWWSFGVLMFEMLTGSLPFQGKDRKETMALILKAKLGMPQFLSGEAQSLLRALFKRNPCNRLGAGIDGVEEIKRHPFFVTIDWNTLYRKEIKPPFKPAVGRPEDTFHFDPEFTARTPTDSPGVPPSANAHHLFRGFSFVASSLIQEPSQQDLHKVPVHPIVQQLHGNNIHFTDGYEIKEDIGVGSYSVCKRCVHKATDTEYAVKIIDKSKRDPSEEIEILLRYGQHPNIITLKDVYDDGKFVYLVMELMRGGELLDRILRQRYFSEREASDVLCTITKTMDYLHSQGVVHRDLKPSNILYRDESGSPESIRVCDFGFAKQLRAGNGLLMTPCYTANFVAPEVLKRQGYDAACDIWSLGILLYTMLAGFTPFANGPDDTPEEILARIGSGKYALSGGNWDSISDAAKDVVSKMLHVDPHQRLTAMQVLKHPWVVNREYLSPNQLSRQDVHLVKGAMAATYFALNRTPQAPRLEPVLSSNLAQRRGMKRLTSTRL
Chain of UniProt P00519 (whole entry, looked up): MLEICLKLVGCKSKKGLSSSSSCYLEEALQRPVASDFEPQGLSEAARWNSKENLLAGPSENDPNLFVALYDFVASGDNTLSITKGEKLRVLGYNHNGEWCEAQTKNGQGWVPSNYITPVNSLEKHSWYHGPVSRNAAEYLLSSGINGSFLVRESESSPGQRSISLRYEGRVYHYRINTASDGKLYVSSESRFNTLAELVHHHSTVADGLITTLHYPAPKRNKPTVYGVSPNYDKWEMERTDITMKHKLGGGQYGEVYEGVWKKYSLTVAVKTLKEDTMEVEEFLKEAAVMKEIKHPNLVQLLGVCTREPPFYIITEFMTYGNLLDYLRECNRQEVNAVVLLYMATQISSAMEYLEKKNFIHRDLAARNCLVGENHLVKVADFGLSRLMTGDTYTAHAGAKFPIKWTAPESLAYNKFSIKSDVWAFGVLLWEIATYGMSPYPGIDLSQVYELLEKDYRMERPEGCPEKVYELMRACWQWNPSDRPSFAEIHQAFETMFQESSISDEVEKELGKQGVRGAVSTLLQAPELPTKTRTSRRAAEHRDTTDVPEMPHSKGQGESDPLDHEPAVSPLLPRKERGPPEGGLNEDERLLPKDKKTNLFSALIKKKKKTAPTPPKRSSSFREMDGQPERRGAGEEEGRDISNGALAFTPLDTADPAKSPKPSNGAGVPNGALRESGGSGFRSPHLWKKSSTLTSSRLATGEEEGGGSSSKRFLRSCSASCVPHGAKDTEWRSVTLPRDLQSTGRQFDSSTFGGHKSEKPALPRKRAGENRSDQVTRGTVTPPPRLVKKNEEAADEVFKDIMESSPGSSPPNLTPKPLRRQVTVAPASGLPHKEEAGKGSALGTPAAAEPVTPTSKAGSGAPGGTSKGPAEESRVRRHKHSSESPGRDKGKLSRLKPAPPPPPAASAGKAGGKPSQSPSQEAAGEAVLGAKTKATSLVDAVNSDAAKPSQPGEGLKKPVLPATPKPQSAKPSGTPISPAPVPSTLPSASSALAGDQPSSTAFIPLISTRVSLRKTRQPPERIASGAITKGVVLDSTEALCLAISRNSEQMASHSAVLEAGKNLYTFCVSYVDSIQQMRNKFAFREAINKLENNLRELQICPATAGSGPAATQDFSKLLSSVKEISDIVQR
Chain of UniProt Q15208 (whole entry, looked up): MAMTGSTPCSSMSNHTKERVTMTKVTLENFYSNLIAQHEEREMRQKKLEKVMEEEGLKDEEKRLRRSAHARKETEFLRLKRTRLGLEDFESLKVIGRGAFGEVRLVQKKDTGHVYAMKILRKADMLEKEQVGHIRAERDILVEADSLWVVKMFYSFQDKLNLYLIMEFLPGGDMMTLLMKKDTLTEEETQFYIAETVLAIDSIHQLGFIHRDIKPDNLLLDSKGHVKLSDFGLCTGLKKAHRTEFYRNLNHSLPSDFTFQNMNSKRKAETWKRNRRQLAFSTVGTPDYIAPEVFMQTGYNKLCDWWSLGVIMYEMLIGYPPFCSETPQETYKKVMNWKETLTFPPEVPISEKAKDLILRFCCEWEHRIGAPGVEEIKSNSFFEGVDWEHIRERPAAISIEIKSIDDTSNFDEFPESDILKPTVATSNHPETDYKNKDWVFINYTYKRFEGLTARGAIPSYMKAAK
Chain of UniProt Q9UQM7 (whole entry, looked up): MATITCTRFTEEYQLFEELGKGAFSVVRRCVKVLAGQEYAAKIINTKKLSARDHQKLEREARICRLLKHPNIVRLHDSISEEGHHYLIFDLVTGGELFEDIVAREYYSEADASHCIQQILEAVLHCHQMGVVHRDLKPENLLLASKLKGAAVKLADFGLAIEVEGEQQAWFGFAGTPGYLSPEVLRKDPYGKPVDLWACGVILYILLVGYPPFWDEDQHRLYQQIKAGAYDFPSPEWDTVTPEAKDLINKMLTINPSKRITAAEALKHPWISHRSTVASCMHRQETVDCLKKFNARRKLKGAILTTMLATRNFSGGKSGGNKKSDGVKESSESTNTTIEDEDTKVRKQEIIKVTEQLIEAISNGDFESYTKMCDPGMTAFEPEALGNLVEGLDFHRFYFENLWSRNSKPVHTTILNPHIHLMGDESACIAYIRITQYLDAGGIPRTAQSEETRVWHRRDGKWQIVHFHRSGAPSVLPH

Sample 1 — cell line: mouse MPNST tumor cells; technique: high-content immunofluorescence imaging; refers to: nuclear SOX9; tested at: 10 µM; time: 12 h; setting: mean of 2 replicates; baseline: DMSO control; reading: higher = more nuclear SOX9
| SMILES | nuclear SOX9 intensity |
| --- | --- |
| CCN(CC)C(=O)c1ccc(O)c(OC)c1 | 103 % of DMSO |
| CC[C@H](C)C(=O)O[C@H]1C[C@H](O)C=C2C=C[C@H](C)[C@H](CC[C@@H](O)C[C@@H](O)CC(=O)O)[C@H]21 | 97 % of DMSO and 91.8 % of DMSO |
| O=C(Nc1cccc(Cl)c1)Nc1ncc(CCNc2ncnc3ccsc23)s1 | 171 % of DMSO |
| CN(C)c1nc(N(C)C)nc(N(C)C)n1 | 103 % of DMSO and 97.8 % of DMSO |
| O=[N+]([O-])c1cnc(CO)n1CCO | 101 % of DMSO |
| COC(=O)C(NC(=O)c1cc(-c2ccccc2)nc2ccccc12)c1ccccc1 (centres unmarked) | 99.5 % of DMSO |
| Cc1ccc(C(=O)C(C)CN2CCCCC2)cc1 (centres unmarked) | 91 % of DMSO |
| CC1(C)[C@@H](OC(=O)CCC(=O)O)CC[C@]2(C)[C@H]3C(=O)C=C4[C@@H]5C[C@@](C)(C(=O)O)CC[C@]5(C)CC[C@@]4(C)[C@]3(C)CC[C@@H]12 | 102 % of DMSO |
| CN(Cc1cc(Br)cc(Br)c1N)C1CCCCC1 | 120 % of DMSO |

Sample 2 — effect on: cell-free assay; technique: competition with immobilised ligand; tested at: 1 µM
SMILES: O=C(Nc1cccnn1)N1CC(C/C=C/c2cncc(Oc3ccc(C(F)(F)F)cn3)n2)C1
| target | remaining binding [%] |
| --- | --- |
| PIK3C2B (Homo sapiens, UniProt O00750) | 93 |
| FGFR2 (Homo sapiens, UniProt P21802) | 100 |
| PLK2 (Homo sapiens, UniProt Q9NYY3) | 60 |
| Ribosomal protein S6 kinase alpha-3, N-terminal kinase domain (RPS6KA3, Homo sapiens, UniProt P51812) | 73 |
| PIKFYVE (Homo sapiens, UniProt Q9Y2I7) | 100 |
| STK38 (Homo sapiens, UniProt Q15208) | 99 |
| EPHB1 (Homo sapiens, UniProt P54762) | 100 |
| CIT (Homo sapiens, UniProt O14578) | 100 |
| Ribosomal protein S6 kinase alpha-2, C-terminal kinase domain (RPS6KA2, Homo sapiens, UniProt Q15349) | 100 |
| Tyrosine-protein kinase ABL1, non-phosphorylated (ABL1, Homo sapiens, UniProt P00519) | 87 |
| MAP3K11 (Homo sapiens, UniProt Q16584) | 100 |
| CAMK2A (Homo sapiens, UniProt Q9UQM7) | 100 |
| CDKL5 (Homo sapiens, UniProt O76039) | 73 |
| PRKCD (Homo sapiens, UniProt Q05655) | 100 |
| PIK3CD (Homo sapiens, UniProt O00329) | 64 |

Sample 3 — cell line: A-375; tested at: 100 µM; time: 18 h
| SMILES | viability |
| --- | --- |
| Cn1cnc([N+](=O)[O-])c1Sc1ncnc2nc[nH]c12 | 77.7% |
| C[C@@H]1O[C@@H]1P(=O)(O)O | 94.9% |
| Nc1ccc2cc3ccc(N)cc3nc2c1 | 38.8% |
| CC(=O)O[C@]1(C(C)=O)CC[C@H]2[C@@H]3C=C(C)C4=CC(=O)CC[C@]4(C)[C@H]3CC[C@@]21C | 69.5% |
| COc1cc(OC)c(C(=O)CCCN2CCCC2)c(OC)c1 | 104% |
| C#C[C@]1(O)CC[C@H]2[C@@H]3CCC4=CC(=O)CC[C@@H]4[C@H]3CC[C@@]21C | 91.2% |

Sample 4 — effect on: enzyme activity; action: inhibitor; tested at: 0.5 µM; baseline: control
Target: Serine/threonine-protein kinase pim-3 (PIM3, Homo sapiens, UniProt Q86V86)
| SMILES | remaining activity |
| --- | --- |
| O=C1c2ccccc2-c2nc3nnnn3nc21 | 93.3% |
| N#CC(c1ccnc(NCCc2cccnc2)n1)c1nc2ccccc2s1 (centres unmarked) | 3.74% |
| Nc1nc(Nc2ccc(S(N)(=O)=O)cc2)nn1C(=S)Nc1c(F)cccc1F | 89.1% |
| COc1cc2c(Nc3ccc(Br)cc3F)ncnc2cc1OCC1CCN(C)CC1 | 96.1% |
| CCCCc1c(-c2ccc(O)cc2)[nH]c2nccnc12 | 72.8% |
| NC(=O)c1ccc(-c2nc(-c3ccc4c(c3)OCCO4)c(-c3ccccn3)[nH]2)cc1 | 96.9% |
| FC(F)(F)c1ccc(/C=C/c2nc(COc3ccc(CCCCn4ccnn4)cc3)co2)cc1 | 107% |
| CC(C)N(CCC(=O)c1ccc2ccccc2c1)Cc1ccccc1 | 105% |
| O=c1c(-c2ccc(F)cc2)c(-c2ccncc2)[nH]n1-c1ccc(Cl)cc1 | 89.9% |
| O=C(O)/C=C/c1cc(Br)c(Br)c(Br)c1Br | 17.7% |
| Clc1ccc(Nc2nnc(Cc3ccncc3)c3ccccc23)cc1 | 98.9% |
